Measurements collected from several papers.
Protocols differ between the studies behind these lines. Values joined by “and” are separate records of one study, mostly repeats; a detail may differ. Numbers after ± are the reported error.
uncharacterized protein: uncharacterized protein (Anopheles coluzzii, UniProt A0A6E8VQK1)
UniProt P27361, sequence (whole entry, looked up): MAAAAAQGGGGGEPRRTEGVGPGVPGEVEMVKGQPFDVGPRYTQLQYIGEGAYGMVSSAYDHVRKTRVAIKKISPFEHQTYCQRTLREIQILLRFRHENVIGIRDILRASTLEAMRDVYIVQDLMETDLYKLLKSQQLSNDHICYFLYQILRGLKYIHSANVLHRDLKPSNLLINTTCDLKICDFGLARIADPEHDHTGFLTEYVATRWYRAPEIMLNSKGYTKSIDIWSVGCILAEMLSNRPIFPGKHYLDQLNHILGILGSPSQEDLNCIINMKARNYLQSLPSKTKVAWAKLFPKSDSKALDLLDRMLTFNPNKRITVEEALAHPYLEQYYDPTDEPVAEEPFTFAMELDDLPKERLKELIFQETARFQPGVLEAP
UniProt O15427, sequence (whole entry, looked up): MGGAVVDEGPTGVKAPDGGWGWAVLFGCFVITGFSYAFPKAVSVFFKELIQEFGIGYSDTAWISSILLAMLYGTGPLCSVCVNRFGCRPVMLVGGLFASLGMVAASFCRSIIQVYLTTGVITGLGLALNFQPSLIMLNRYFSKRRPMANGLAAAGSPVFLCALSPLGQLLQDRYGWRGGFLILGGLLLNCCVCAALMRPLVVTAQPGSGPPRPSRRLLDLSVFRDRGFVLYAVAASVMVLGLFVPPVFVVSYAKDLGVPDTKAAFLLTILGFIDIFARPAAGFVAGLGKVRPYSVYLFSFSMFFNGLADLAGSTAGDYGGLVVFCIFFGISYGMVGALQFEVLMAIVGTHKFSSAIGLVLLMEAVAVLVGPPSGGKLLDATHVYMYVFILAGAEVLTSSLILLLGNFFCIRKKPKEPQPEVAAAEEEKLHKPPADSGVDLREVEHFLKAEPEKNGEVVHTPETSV
UniProt Q9UBS5, sequence (whole entry, looked up): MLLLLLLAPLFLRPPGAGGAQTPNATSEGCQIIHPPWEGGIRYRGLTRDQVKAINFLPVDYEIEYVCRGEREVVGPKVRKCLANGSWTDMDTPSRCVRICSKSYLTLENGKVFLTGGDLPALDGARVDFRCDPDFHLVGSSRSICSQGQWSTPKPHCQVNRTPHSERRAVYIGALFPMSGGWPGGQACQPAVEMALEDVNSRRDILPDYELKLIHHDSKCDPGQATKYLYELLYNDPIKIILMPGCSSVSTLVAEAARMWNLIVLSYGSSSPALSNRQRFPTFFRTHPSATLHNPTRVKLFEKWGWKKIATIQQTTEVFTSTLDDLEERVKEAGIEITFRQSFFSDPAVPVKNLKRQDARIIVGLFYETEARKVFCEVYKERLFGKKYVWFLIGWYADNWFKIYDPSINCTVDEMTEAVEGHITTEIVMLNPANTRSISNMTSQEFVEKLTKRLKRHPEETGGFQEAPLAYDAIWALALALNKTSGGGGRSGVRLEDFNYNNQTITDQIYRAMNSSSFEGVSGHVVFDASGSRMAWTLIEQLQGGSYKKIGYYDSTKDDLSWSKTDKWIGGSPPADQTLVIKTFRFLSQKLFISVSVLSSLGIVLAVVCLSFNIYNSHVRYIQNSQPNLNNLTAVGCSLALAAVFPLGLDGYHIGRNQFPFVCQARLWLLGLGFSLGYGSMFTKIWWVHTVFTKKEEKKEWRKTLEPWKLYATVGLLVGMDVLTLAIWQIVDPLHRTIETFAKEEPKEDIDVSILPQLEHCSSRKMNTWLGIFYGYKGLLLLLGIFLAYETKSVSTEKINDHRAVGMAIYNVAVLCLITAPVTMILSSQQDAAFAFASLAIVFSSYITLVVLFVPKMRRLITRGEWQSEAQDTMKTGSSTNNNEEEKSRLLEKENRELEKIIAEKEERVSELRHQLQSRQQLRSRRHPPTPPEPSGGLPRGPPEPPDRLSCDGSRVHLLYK
UniProt C6WFL3, sequence (whole entry, looked up): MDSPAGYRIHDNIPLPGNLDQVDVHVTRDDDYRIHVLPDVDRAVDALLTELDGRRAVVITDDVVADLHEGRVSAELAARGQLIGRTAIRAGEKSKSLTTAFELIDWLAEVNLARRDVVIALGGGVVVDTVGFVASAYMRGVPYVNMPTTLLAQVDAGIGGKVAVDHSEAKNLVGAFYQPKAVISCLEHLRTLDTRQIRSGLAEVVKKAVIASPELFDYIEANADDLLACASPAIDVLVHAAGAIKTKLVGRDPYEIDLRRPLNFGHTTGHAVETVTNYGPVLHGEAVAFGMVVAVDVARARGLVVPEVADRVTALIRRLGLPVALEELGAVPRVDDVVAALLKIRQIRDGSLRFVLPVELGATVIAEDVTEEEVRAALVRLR
UniProt O15530, sequence (whole entry, looked up): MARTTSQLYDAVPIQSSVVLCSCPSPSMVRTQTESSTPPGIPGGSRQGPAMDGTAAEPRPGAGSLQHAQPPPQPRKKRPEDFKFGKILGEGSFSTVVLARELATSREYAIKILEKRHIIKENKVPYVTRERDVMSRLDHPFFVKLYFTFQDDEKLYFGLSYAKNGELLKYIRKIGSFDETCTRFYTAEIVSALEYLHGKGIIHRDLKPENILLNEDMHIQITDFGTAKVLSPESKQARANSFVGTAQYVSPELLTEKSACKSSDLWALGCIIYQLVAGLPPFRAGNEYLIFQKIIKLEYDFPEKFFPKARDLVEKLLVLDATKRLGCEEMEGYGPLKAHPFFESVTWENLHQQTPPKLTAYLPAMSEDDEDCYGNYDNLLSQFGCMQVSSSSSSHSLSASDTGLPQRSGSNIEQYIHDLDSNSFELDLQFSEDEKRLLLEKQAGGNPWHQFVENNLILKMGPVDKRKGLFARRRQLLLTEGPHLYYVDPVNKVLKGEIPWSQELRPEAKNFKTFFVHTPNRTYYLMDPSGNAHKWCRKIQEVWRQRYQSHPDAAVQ
UniProt Q8NEZ5, sequence (whole entry, looked up): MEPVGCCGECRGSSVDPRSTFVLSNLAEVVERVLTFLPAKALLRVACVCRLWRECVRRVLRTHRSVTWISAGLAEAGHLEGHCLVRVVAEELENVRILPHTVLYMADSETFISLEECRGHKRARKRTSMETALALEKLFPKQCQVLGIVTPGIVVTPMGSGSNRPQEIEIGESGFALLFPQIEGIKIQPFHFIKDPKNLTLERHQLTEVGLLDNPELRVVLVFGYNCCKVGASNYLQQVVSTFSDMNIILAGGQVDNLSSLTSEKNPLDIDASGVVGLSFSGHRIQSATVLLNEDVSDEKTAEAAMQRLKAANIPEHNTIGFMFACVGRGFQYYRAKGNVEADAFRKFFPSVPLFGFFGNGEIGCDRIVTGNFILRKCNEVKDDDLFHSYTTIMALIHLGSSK
UniProt P43140, sequence (whole entry, looked up): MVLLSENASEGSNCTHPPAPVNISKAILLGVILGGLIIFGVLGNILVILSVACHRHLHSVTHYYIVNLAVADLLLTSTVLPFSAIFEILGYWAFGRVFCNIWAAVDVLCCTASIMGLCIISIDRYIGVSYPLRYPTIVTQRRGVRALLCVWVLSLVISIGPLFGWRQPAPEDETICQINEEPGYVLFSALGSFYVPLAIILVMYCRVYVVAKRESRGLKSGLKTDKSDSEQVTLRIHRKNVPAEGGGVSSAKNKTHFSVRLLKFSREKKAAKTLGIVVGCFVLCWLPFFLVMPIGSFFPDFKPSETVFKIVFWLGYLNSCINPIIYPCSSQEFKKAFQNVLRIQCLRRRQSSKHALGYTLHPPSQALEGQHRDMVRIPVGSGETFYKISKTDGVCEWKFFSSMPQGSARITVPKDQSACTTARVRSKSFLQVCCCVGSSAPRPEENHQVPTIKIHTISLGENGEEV
UniProt P04756, sequence (whole entry, unmodified, looked up): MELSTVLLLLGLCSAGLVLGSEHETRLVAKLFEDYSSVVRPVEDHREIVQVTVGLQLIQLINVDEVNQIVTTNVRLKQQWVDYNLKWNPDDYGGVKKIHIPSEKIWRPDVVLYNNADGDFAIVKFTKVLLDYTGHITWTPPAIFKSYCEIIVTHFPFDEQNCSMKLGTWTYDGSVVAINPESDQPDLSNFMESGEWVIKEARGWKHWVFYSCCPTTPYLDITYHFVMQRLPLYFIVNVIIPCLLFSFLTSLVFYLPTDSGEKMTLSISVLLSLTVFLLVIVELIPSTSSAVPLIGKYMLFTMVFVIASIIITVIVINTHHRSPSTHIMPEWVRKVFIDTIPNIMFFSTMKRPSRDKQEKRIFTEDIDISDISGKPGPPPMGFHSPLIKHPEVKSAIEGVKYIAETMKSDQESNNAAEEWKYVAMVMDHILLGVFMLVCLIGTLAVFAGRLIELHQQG
UniProt Q9UPE1, sequence (whole entry, looked up): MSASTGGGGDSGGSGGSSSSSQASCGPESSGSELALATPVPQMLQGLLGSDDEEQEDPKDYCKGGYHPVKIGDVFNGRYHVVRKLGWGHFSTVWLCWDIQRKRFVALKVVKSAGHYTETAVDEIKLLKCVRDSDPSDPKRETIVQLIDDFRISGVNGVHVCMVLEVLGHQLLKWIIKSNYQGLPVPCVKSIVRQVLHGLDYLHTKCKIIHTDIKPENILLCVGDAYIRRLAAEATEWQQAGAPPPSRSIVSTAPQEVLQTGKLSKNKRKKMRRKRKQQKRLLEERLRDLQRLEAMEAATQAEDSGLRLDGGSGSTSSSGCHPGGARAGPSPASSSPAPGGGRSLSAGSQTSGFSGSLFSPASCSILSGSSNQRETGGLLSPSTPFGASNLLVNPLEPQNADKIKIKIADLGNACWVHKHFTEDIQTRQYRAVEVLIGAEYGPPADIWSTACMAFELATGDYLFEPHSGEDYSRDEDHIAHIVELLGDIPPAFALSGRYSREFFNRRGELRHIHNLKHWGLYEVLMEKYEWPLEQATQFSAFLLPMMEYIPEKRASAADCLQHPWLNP
UniProt Q9NWT6, sequence (whole entry, unmodified, looked up): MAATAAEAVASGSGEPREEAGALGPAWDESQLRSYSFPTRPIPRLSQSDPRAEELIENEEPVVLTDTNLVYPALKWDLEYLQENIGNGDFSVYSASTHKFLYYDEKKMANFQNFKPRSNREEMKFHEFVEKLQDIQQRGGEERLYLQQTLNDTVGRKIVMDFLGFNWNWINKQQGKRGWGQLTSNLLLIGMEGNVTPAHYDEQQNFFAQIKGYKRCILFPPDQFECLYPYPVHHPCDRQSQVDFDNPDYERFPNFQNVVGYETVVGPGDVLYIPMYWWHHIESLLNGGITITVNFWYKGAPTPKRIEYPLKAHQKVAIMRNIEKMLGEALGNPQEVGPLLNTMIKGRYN

| Compound | target | assay | test system | conditions | how to read | quantity | value |
| --- | --- | --- | --- | --- | --- | --- | --- |
| [2H]c1c([2H])c([C@]2([2H])CCCN2C(=O)C(C)(C)Oc2ccc3cn[nH]c3c2)c([2H])c([2H])c1C([2H])([2H])[2H] | MAP4K3 (Homo sapiens, UniProt Q8IVH8) | KINOMEscan | – | 1 µM | baseline: DMSO control | remaining binding | 88% |
| COC(=O)[C@@]1(O)C[C@H]2O[C@]1(C)n1c3ccccc3c3c4c(c5c6ccccc6n2c5c31)C(=O)NC4 | MAPK3 (Homo sapiens, UniProt P27361) | ADP-Glo | – | 50 µM, with: MBP substrate | – | kinase activity | 108% and 99.3% and 122% |
| C[N+](C)(C)CCOP(=O)(O)O | SAR11_0797 protein (Candidatus Pelagibacter ubique) | isothermal titration calorimetry | – | concentration not given | – | binding | no binding |
| CC(C)C[C@H](NC(=O)[C@@H]1CCCN1C(=O)[C@H](CCCNC(=N)N)NC(=O)[C@H](CC(C)C)NC(=O)[C@H](CCCNC(=N)N)NC(=O)[C@H](CC(=O)O)NC(=O)[C@H](Cc1ccc(O)cc1)NC(=O)[C@H](CC(=O)O)NC(=O)[C@H](CCC(=O)O)NC(=O)[C@H](CCC(N)=O)NC(=O)CN)C(=O)O | Epithelial sodium channel subunit gamma (Homo sapiens, UniProt P51170) | binding, bio-layer interferometry | – | – | – | koff | 16.5 s⁻¹ |
| CN1CCN(c2cc(-c3ccncc3)c(-c3ccc4ccccc4c3)nn2)CC1 | CCKAR (Homo sapiens, UniProt P32238) | antagonist, FLIPR | – | 10 µM | – | inhibition | 21.1% |
| C[C@@H](O)[C@H](NC(=O)c1ccc(-c2ccc(Br)cc2)cc1)C(=O)NO | UDP-3-O-acyl-N-acetylglucosamine deacetylase (Pseudomonas aeruginosa, UniProt P47205, C40S) | ITC | – | concentration not given, 298 K | – | ΔS of binding | 0.069 kJ/(mol·K) |
| Nc1ncnc2c1ncn2[C@@H]1O[C@H](COP(=O)(O)OP(=O)(O)O)[C@@H](O)[C@H]1O | Cell cycle histidine kinase CckA, cytoplasmic region (Caulobacter vibrioides, UniProt Q9X688) | isothermal titration calorimetry | Caulobacter crescentus | concentration not given, 25 °C, with: without c-di-GMP | – | binding enthalpy (ΔH) | -1.6 kcal/mol |
| O=C(O)CCC(=O)C(=O)O | HIF1AN (Homo sapiens, UniProt Q9NWT6, Y93A) | cosubstrate | – | pH 7.00, 37.0 °C, mutant Y93A, with: CTAD peptide 100 µM, cosubstrate 217 µM | – | Km | 13 ± 5 µM |
| CC(C)(COP(=O)(O)OP(=O)(O)OC[C@H]1O[C@@H](n2cnc3c(N)ncnc32)[C@H](O)[C@@H]1OP(=O)(O)O)[C@@H](O)C(=O)NCCC(=O)NCCS | matB (Rhodopseudomonas palustris, UniProt Q6ND88, C106A/K488A/Q457C/R286C) | binding, intrinsic fluorescence | – | 0.25 mM, 1 µM matB, 10 mM MgCl2 | – | fluorescence ratio F+/F- | 0.96 |
| NCCc1c[nH]c2ccc(O)cc12 | AANAT2 Hippopotamus amphibius | substrate, DTNB colorimetric | – | with: acetyl-CoA | – | Km | 180 ± 50 µM |
| O=C(Nc1cccnn1)N1CCC(=Cc2cccc(Oc3ccc(C(F)(F)F)cn3)c2)CC1 | Adra1a (Rattus norvegicus, UniProt P43140) | binding | – | 10 µM, with: [3H]prazosin | – | inhibition | 19% |
| c1ccc2c(c1)cc1ccc3cccc4ccc2c1c34 | Ahr (Rattus norvegicus, UniProt P41738) | reporter gene, agonist | H4IIE-luc rat hepatoma cells | 0.2 to 50 nM | – | EC20 | 2.3 log fmol/well |
| COc1cc(N)c(Cl)cc1C(=O)NC1CN2CCC1CC2 (stereo not shown) | Probable G-protein coupled receptor 162 (GPR162, Homo sapiens, UniProt Q16538) | β-arrestin recruitment, TANGO luminescence, measured: GPR162 | – | concentration not given | baseline: basal luminescence | log2 fold change | -0.16 |
| O=P(O)(O)OC[C@H]1C[C@](O)(CO)[C@@H](O)[C@H](O)[C@@H]1O | 2-epi-valiolone synthase (Actinosynnema mirum, UniProt C6WFL3) | phosphate release | – | 50 µM | – | apparent Vmax | 1.9 ± 0.2 µM/min |
| CN[C@@H]1C[C@H]2O[C@@](C)([C@@H]1OC)n1c3ccccc3c3c4c(c5c6ccccc6n2c5c31)C(=O)NC4 | SRC (Homo sapiens, UniProt P12931) | binder, NanoLuc thermal shift | permeabilized HeLa, Nluc fusion | – | – | ΔTm | -0.1 °C |
| O=C(c1ccc(Cl)cc1)N1CCN2C(=O)N(OC(=O)N3CCOc4ccccc43)C(=O)C2C1 (stereo not shown) | SLC16A3 (Homo sapiens, UniProt O15427) | MS-based ABPP | SW-620 conditioned medium | 10 µM, 1 h, 37 °C | baseline: compound over DMSO, lower = more inhibition | peptide ratio | 1.53 and 1.36 and 1.56 and 1.38 |
| COc1cc(Nc2ncc(F)c(Nc3ccc4c(n3)NC(=O)C(C)(C)O4)n2)cc(OC)c1OC | SRPK3 (Homo sapiens, UniProt Q9UPE1) | KINOMEscan | – | 10 µM | – | inhibition | 12% |
| CN(C(=O)n1cnc(-c2ccc[n+]([O-])c2)c1)C1CCCCC1 | PTGER1 (Homo sapiens, UniProt P34995) | binding, measured: EP1 | – | 10 µM, human, with: [3H]prostaglandin E2 | – | inhibition | 7% |
| COc1cc(C=O)cc2c1[C@H](COC(N)=O)[C@]1(OC(C)=O)ON2C[C@H]2[C@@H]1N2C(C)=O | F-box only protein 22 (Homo sapiens, UniProt Q8NEZ5) | binding, affinity selection mass spectrometry | – | 100 nM, pooled screen | baseline: other proteins | fold change | 16.4 |

| Compound | target | assay | test system | conditions | how to read | quantity | value |
| --- | --- | --- | --- | --- | --- | --- | --- |
| c1cncc([C@@H]2CCCN2)c1 | Chrnd/Chrna1/Chrne (Mus musculus, UniProt P02716+P04756+P20782, G173K/S470W) | single-channel kinetics | – | K chain side site | – | kon | 1.9e+09 M⁻¹ s⁻¹ |
| CNC(=O)Oc1ccccc1OC(C)C | uncharacterized protein | enzyme activity, inhibitor | Sf9 cell homogenate | 0.2326 µM, 0.1667 h, with: α-naphthyl acetate substrate | baseline: no inhibitor | remaining activity | 97.5% |
| CC(C)=CCC[C@]1(C)C=Cc2c(O)c3c(c(CC=C(C)C)c2O1)O[C@]12C(=C[C@@H]4C[C@H]1C(C)(C)O[C@@]2(C/C=C(/C)C(=O)O)C4=O)C3=O | DCLRE1A (Homo sapiens, UniProt Q6PJP8) | exonuclease activity, inhibitor, fluorescence HTS | – | 10 µM, 80 min, with: 8 nM 5P-FQ substrate | – | remaining activity | 27.3% |
| C#CCCCCNC(=O)CI | 3-ketoacyl-CoA thiolase, mitochondrial (Homo sapiens, UniProt P42765) | mass spectrometry profiling | H460 cell lysate | 100 µM over 10 µM, UniProt P42765 | baseline: high over low concentration | reactivity ratio | 1.49 |
| C[C@]12CC[C@H]3[C@@H](CCC4=CC(=O)CC[C@@]43C)[C@@H]1CC[C@@H]2C(=O)CO | CYP11B2 (Homo sapiens, UniProt P19099, A320V) | – | – | – | – | k−2 | 0.62 ± 0.06 s⁻¹ |
| Clc1cc2c(cc1Cl)Oc1cc(Cl)c(Cl)cc1O2 | Uncharacterized protein (Takifugu rubripes, UniProt Q4JHL6) | reporter gene, agonist, dual-luciferase | COS-7 | 24 h | – | EC80 | 1.21 ± 0.39 nM |
| COC(=O)[C@H]1[C@H]2C[C@@H]3c4[nH]c5cc(OC)ccc5c4CCN3C[C@H]2C[C@@H](OC(=O)c2cc(OC)c(OC)c(OC)c2)[C@@H]1OC | SLC18A2 (Homo sapiens, UniProt Q05940) | inhibitor | HEK293 | 1 µM, with: FFN206 | – | FFN206 uptake | inhibited |
| Nc1nc2c(ncn2[C@@H]2O[C@H](COP(=O)(O)OP(=O)(O)O[C@H]3O[C@H](CCO)C(=O)[C@@H](O)[C@@H]3O)[C@@H](O)[C@H]2O)c(=O)[nH]1 | C4-reductase HS:4, Campylobacter jejuni subsp. jejuni | substrate | – | pH 7.5, 25 °C, substrate formed in situ, with: C3-epimerase excess, NADPH 300 µM | – | Km | 40 ± 9 µM |
| CC1(C)C(C=C(Cl)Cl)C1C(=O)OCc1cccc(Oc2ccccc2)c1 (stereo not shown) | uncharacterized protein | enzyme activity, inhibitor | Sf9 cell homogenate | 93.02 µM, 0.1667 h, with: α-naphthyl acetate substrate | baseline: no inhibitor | remaining activity | 87.6% |
| O=C(Cc1cccs1)N[C@@H]1C(=O)N2C(C(=O)O)=C(/C=C/c3ccc([N+](=O)[O-])cc3[N+](=O)[O-])CS[C@H]12 | blaNDM-1 (Klebsiella pneumoniae, UniProt C7C422, C208D) | hydrolysis, substrate | – | – | – | Km | 0.9 ± 0.1 µM |
| COc1ccc(N2C(=O)N(c3c(C)cccc3Cl)Cc3cnc(Nc4ccc(C5CCN(C)CC5)cc4OC)nc32)nc1 | PDPK1 (Homo sapiens, UniProt O15530) | kinase activity, inhibitor | – | 0.5 µM, PDK1 | – | inhibition | 12% |
| O=C(O)COP(=O)(O)O | TPI1 (Saccharomyces cerevisiae, UniProt P00942, S211G/Y208T) | enzyme activity, competitive inhibitor, GPDH/NADH-coupled | – | pH 7.5, 25 °C, ionic strength 0.1 NaCl, with: glyceraldehyde 3-phosphate substrate | baseline: mutant over wild type | Ki ratio | 13 |
| CC(CCn1ccc(-c2ccc(-c3cn(Cc4ccccc4)nn3)cc2)cc1=O)(C(=O)NO)S(C)(=O)=O (stereo not shown) | UDP-3-O-acyl-N-acetylglucosamine deacetylase (Pseudomonas aeruginosa, UniProt P47205) | fluorescence | – | 37 °C | – | residence time | 57.3 min and 57 min |
| CC[C@H](C)[C@H](NC(=O)CNC(=O)[C@@H](N)CCCCN)C(=O)N[C@@H](CC(C)C)C(=O)N[C@@H](CCCCN)C(=O)N[C@@H](CCCNC(=N)N)C(=O)N[C@@H](CCC(=O)O)C(=O)N[C@@H](CCCCN)C(=O)N[C@@H](CCCNC(=N)N)C(=O)N[C@@H](CC(C)C)C(=O)N[C@@H](CCCNC(=N)N)C(=O)N[C@@H](CCCNC(=N)N)C(=O)N[C@@H](CCCCN)C(=O)N[C@@H](CC(N)=O)C(=O)N[C@H](C(=O)N[C@@H](Cc1c[nH]cn1)C(=O)N[C@@H](Cc1c[nH]c2ccccc12)C(=O)N1CCC[C@H]1C(=O)N[C@@H](CCC(=O)O)C(=O)N[C@@H](CCC(=O)O)C(=O)NCC(=O)N[C@@H](CCCCN)C(=O)N[C@@H](CC(C)C)C(=O)N[C@@H](CCCNC(=N)N)C(=O)N[C@@H](CCC(=O)O)C(=O)N[C@@H](Cc1ccccc1)C(=O)N[C@@H](Cc1ccccc1)C(=O)N[C@@H](Cc1ccccc1)C(=O)N[C@@H](Cc1ccccc1)C(=O)N[C@@H](CCC(=O)O)C(=O)N[C@@H](CC(C)C)C(=O)N[C@@H](CC(=O)O)C(=O)N[C@@H](CCC(=O)O)C(=O)N[C@@H](C)C(=O)N[C@@H](CCC(=O)O)C(=O)N[C@@H](CCCNC(=N)N)C(=O)N[C@H](C(=O)N[C@@H](CC(N)=O)C(=O)N[C@H](C(=O)O)C(C)C)C(C)C)C(C)C | PPP1CA (Homo sapiens, UniProt P62136) | ITC | – | concentration not given, 25 °C, PP1α 7-330 | – | ΔG of binding | -11.3 ± 0.1 kcal/mol |
| C[C@H]1CN(c2n[nH]c3nc(N[C@H]4CC[C@H](NS(=O)(=O)CCC(F)(F)F)CC4)ncc23)CCO1 | Prohibitin-2 (PHB2, Homo sapiens, UniProt Q99623) | inhibitor, Kinobeads competition profiling | – | 20 µM | baseline: vehicle | relative abundance | 1.13 |
| O=C(Nc1cnccc1Cl)N1CCN(Cc2ccc3c(c2)OC(F)(F)O3)CC1 | GABBR1 (Homo sapiens, UniProt Q9UBS5) | radioligand binding | – | 10 µM, with: [3H]CGP-54626 | – | inhibition of binding | 1% |
| O=C1c2ccccc2C(=O)C1c1ccccc1 | Nuclear receptor subfamily 1 group I member 3 (Homo sapiens, UniProt Q14994) | – | – | concentration not given | – | activity | inactive |
| CC(C)(O/N=C(\C(=O)N[C@@H]1C(=O)N2C(C(=O)[O-])=C(C[N+]3(CCNC(=O)c4ccc(O)c(O)c4Cl)CCCC3)CS[C@H]12)c1csc(N)n1)C(=O)O | blaNDM-1 (Klebsiella pneumoniae, UniProt C7C422) | tryptophan fluorescence, substrate, stopped-flow fluorescence | – | pH 7.5, 10 °C | – | fluorescence recovery time | 1 s |
